Published values gathered from unrelated publications.
Compare with care: the assays were run in different laboratories. ± gives the spread as reported.
Organism: Escherichia coli

SMILES	test	test system	setting	how to read	MIC
CC1(C)SC2C(NC(=O)C(NC(=O)C3=C(O)C(Cc4ccco4)NC3=O)c3ccccc3)C(=O)N2C1C(=O)O (centres unmarked)	broth microdilution	Keio mutant JW2142-1			12.5 µg/mL
CC[C@H](C)[C@H](NC(=O)[C@H](CCCNC(=N)N)NC(=O)[C@H](CCC(N)=O)NC(=O)[C@@H](NC(=O)[C@@H](NC(=O)[C@H](CCCNC(=N)N)NC(=O)[C@H](C)N)[C@@H](C)CC)C(C)C)C(=O)N[C@@H](CCCCN)C(=O)N[C@@H](CC(=O)O)C(=O)N[C@@H](Cc1ccccc1)C(=O)N[C@@H](CC(C)C)C(=O)N[C@@H](CCCNC(=N)N)C(N)=O	broth microdilution	K12	16 h, 37 °C		63 ± 21 µM
N=C(N)c1ccc(OCc2cccc(COc3ccc(C(=N)N)cc3)c2)cc1		BW25113 mcr-1	compound alone		> 100 µg/mL
CC[C@H](C)[C@H](NC(=O)[C@H](CCCNC(=N)N)NC(=O)[C@H](CCCCN)NC(=O)[C@H](Cc1c[nH]c2ccccc12)NC(=O)[C@H](CCC(N)=O)NC(=O)[C@H](Cc1ccccc1)NC(=O)[C@H](Cc1c[nH]c2ccccc12)NC(=O)[C@@H](NC(=O)[C@H](CCCCN)NC(=O)[C@@H](NC(=O)[C@H](CCC(N)=O)NC(=O)[C@@H](N)CCCNC(=N)N)[C@@H](C)CC)[C@@H](C)CC)C(=O)N[C@@H](CCCCN)C(=O)N[C@@H](Cc1c[nH]c2ccccc12)C(=O)N[C@@H](CCCNC(=N)N)C(=O)N[C@@H](CCCNC(=N)N)C(=O)O		ATCC 25922			0.75 µM
CC[C@H](C)[C@H](NC(=O)CNC(=O)[C@H](CC(=O)O)NC(=O)[C@H](CCC(=O)O)NC(=O)[C@@H](NC(=O)[C@H](CC(N)=O)NC(=O)[C@H](CCCNC(=N)N)NC(=O)CNC(=O)[C@@H](NC(=O)[C@H](CCCCN)NC(=O)[C@H](CCC(=O)O)NC(=O)[C@@H](NC(=O)[C@H](CCCCN)NC(=O)[C@H](CCCCN)NC(=O)[C@H](Cc1ccccc1)NC(=O)[C@@H](NC(=O)[C@H](CCCCN)NC(=O)[C@H](Cc1c[nH]c2ccccc12)NC(=O)[C@@H](N)CCCNC(=N)N)[C@@H](C)CC)[C@@H](C)CC)C(C)C)C(C)C)C(=O)N[C@H](C(=O)N[C@@H](CCCCN)C(=O)N[C@@H](C)C(=O)NCC(=O)N1CCC[C@H]1C(=O)N[C@@H](C)C(=O)N[C@H](C(=O)N[C@@H](C)C(=O)N[C@H](C(=O)N[C@H](C(=O)NCC(=O)N[C@@H](CCC(N)=O)C(=O)N[C@@H](C)C(=O)N[C@@H](C)C(=O)N[C@H](C(=O)N[C@H](C(=O)N[C@H](C(=O)N[C@@H](CCCCN)C(N)=O)C(C)C)C(C)C)[C@@H](C)O)C(C)C)C(C)C)C(C)C)[C@@H](C)CC		KCTC 1682, Mueller-Hinton broth	16 h, 37 °C	growth inhibition over 99%	8 µM
N=C(N)NCCC[C@H](NC(=O)[C@H](Cc1c[nH]c2ccccc12)NC(=O)[C@H](CCCNC(=N)N)NC(=O)[C@@H](N)Cc1c[nH]c2ccccc12)C(=O)N[C@@H](Cc1ccccc1)C(=O)N[C@@H](CCC(N)=O)C(=O)N[C@@H](Cc1ccccc1)C(=O)N[C@@H](CCC(N)=O)C(=O)N[C@@H](Cc1ccccc1)C(=O)N[C@@H](CCCCN)C(N)=O	broth microdilution, optical density				18 µM
C[C@H]1COc2c(N3CCN(C)CC3)c(F)cc3c(=O)c(C(=O)O)cn1c23	agar dilution	08-85 mcr-1			16 µg/mL
COc1c(C(=O)Nc2ccc(C(=O)O)cc2)ccc2nc(-c3cc(NC(=O)C(CC(N)=O)NC(=O)c4ccc(NC(=O)c5ccc(C#N)cc5)cc4)cn3C)[nH]c12 (centres unmarked)		K12 ΔtolC			> 64 µg/mL
CC[C@@H](C)[C@@H](N)C(=O)N[C@@H](C(=O)N[C@H](Cc1ccc(O)cc1)C(=O)N[C@@H](C(=O)N[C@H](CCN)C(=O)N[C@H](CC(C)C)C(=O)N[C@H](CO)C(=O)N[C@H](CCN)C(=O)N[C@@H](C(=O)N[C@H](CCN)C(=O)N[C@H](Cc1c[nH]cn1)C(=O)N[C@H](CCN)C(=O)N[C@H](C)C(=O)N[C@H](CCN)C(=O)N[C@H](CCN)C(N)=O)[C@H](C)CC)[C@H](C)CC)[C@H](C)CC		W3110, colistin-sensitive, Mueller-Hinton broth			2 µg/mL
C[C@@H](O)[C@H]1C(=O)N2C(C(=O)O)=C(S[C@@H]3CN[C@H](C(=O)N(C)C)C3)[C@H](C)[C@H]12		DH5α expressing KPC-136			1 µg/mL
CC[C@H](C)[C@H](NC(=O)[C@@H]1CCCN1C(=O)[C@@H]1CCCN1C(=O)[C@H](CCCNC(=N)N)NC(=O)[C@H](Cc1ccccc1)NC(=O)[C@@H](N)CCCNC(=N)N)C(=O)N[C@@H](CCCNC(=N)N)C(=O)N[C@@H](CCCNC(=N)N)C(=O)N1CCC[C@H]1C(=O)N1CCC[C@H]1C(=O)N[C@H](C(=O)N[C@@H](CCCNC(=N)N)C(=O)N1CCC[C@H]1C(=O)N1CCC[C@H]1C(=O)N[C@@H](Cc1ccccc1)C(=O)N[C@@H](Cc1ccc(O)cc1)C(=O)N1CCC[C@H]1C(=O)N1CCC[C@H]1C(=O)N[C@@H](Cc1ccccc1)C(=O)N[C@@H](CCCNC(=N)N)C(=O)N1CCC[C@H]1C(=O)N1CCC[C@H]1C(=O)N[C@H](C(=O)N[C@@H](CCCNC(=N)N)C(=O)N1CCC[C@H]1C(=O)N1CCC[C@H]1C(=O)N[C@H](C(=O)N[C@@H](Cc1ccccc1)C(=O)N1CCC[C@H]1C(=O)N1CCC[C@H]1C(=O)N[C@H](C(=O)N[C@@H](CCCNC(=N)N)C(=O)N1CCC[C@H]1C(=O)N1CCC[C@H]1C(=O)N[C@@H](Cc1ccccc1)C(=O)N[C@@H](CCCNC(=N)N)C(=O)N1CCC[C@H]1C(=O)N1CCC[C@H]1C(=O)N[C@@H](CC(C)C)C(=O)NCC(=O)N1CCC[C@H]1C(=O)N[C@@H](Cc1ccccc1)C(=O)N1CCC[C@H]1C(=O)O)[C@@H](C)CC)[C@@H](C)CC)[C@@H](C)CC)[C@@H](C)CC	broth dilution	K12 BW25113			2.6 µM
CC[C@H](C)[C@H](NC(=O)[C@H](CC(C)C)NC(=O)[C@@H](NC(=O)[C@H](CCCNC(=N)N)NC(=O)[C@H](CCCNC(=N)N)NC(=O)[C@H](CCCNC(=N)N)NC(=O)[C@@H](N)CCCNC(=N)N)[C@@H](C)CC)C(=O)N[C@@H](CCCCN)C(=O)N[C@@H](CCCCN)C(=O)N[C@H](C(=O)N[C@@H](CC(C)C)C(=O)N[C@@H](CCCCN)C(=O)N[C@@H](CC(C)C)C(=O)N[C@@H](CCCCN)C(=O)N[C@@H](CO)C(=O)N[C@@H](CO)C(=O)N[C@@H](C)C(=O)N[C@@H](Cc1ccc(O)cc1)C(N)=O)C(C)C	checkerboard		24 h, 37 °C, alone, rifampicin plate		32 µM
CC[C@H](C)[C@H](NC(=O)[C@H](CC(C)C)NC(=O)[C@H](CCCNC(=N)N)NC(=O)[C@@H](N)CCCNC(=N)N)C(=O)N[C@@H](CCCNC(=N)N)C(=O)N[C@@H](CCCCN)C(=O)N[C@@H](CC(C)C)C(=O)N[C@@H](CCCCN)C(=O)NCC(=O)N[C@@H](CC(C)C)C(=O)N[C@@H](CCCCN)C(=O)N[C@@H](CCCCN)C(=O)N[C@@H](Cc1ccc(O)cc1)C(=O)N[C@@H](CC(C)C)C(=O)N[C@@H](Cc1ccc(O)cc1)C(=O)N[C@@H](Cc1ccccc1)C(=O)N[C@@H](CCCCN)C(=O)N[C@@H](CC(C)C)C(=O)N[C@@H](CCC(N)=O)C(=O)N[C@@H](CC(C)C)C(=O)N[C@@H](CC(C)C)C(=O)N[C@@H](CCCCN)C(=O)N[C@@H](CCCCN)C(N)=O		KCTC 1682, Mueller-Hinton broth	with: 2.5 mM CaCl2		16 µM
CC[C@H](C)[C@H](N)C(=O)N[C@@H](CC(C)C)C(=O)NCC(=O)N[C@@H](CCCNC(=N)N)C(=O)N[C@H](C(=O)N[C@@H](Cc1c[nH]c2ccccc12)C(=O)N[C@@H](CCCCN)C(=O)NCC(=O)N[C@H](C(=O)N[C@@H](CCCCN)C(=O)N[C@@H](CC(=O)O)C(=O)N[C@H](C(=O)N[C@@H](CC(C)C)C(N)=O)[C@@H](C)CC)[C@@H](C)CC)[C@@H](C)CC	broth microdilution	ATCC 25922, Mueller-Hinton broth	16 h, 37 °C		6.25 µM
CC(C)Oc1c(NC(=O)c2ccc(N3C(=O)C[C@H](NC(=O)c4ccc(NC(=O)c5ccc(C#N)cc5)cc4)C3=O)cc2)ccc(C(=O)N/N=C/c2cccn2C)c1O		BW25113	18 h, 37 °C, dark-adapted state		0.83 µg/mL
C[C@@H](O)[C@H]1C(=O)N2C(C(=O)O)=C(S[C@@H]3CN[C@H](C(=O)Nc4cccc(C(=O)O)c4)C3)[C@H](C)[C@H]12		BL21(DE3) wild type			< 0.09 µg/mL
CC[C@H](C)[C@H](NC(=O)CNC(=O)[C@H](CC(=O)O)NC(=O)[C@H](CCCNC(=N)N)NC(=O)[C@@H](NC(=O)[C@H](CC(N)=O)NC(=O)[C@H](CCCNC(=N)N)NC(=O)CNC(=O)[C@@H](NC(=O)[C@H](CCCCN)NC(=O)[C@H](CCC(=O)O)NC(=O)[C@@H](NC(=O)[C@H](CCCCN)NC(=O)[C@H](CCCCN)NC(=O)[C@H](Cc1ccccc1)NC(=O)[C@@H](NC(=O)[C@H](CCCCN)NC(=O)[C@H](Cc1c[nH]c2ccccc12)NC(=O)[C@@H](N)CCCNC(=N)N)[C@@H](C)CC)[C@@H](C)CC)C(C)C)C(C)C)C(=O)N[C@H](C(=O)N[C@@H](CCCCN)C(=O)N[C@@H](C)C(=O)NCC(=O)N1CCC[C@H]1C(=O)N[C@@H](C)C(=O)N[C@H](C(=O)N[C@@H](C)C(=O)N[C@H](C(=O)N[C@H](C(=O)NCC(=O)N[C@@H](CCC(N)=O)C(=O)N[C@@H](C)C(=O)N[C@@H](C)C(=O)N[C@H](C(=O)N[C@@H](C)C(=O)N[C@@H](C)C(=O)N[C@@H](CCCCN)C(N)=O)[C@@H](C)O)C(C)C)C(C)C)C(C)C)[C@@H](C)CC		K1 ATCC 700973, Mueller-Hinton broth	16 h, 37 °C	growth inhibition over 99%	2 µM
CC1(C)SC2C(NC(=O)C(NC(=O)C3=C(O)C(Cc4ccc([N+](=O)[O-])cc4)NC3=O)c3ccccc3)C(=O)N2C1C(=O)O (centres unmarked)	broth microdilution	Keio mutant JW0587-1	18 h, enterobactin-related gene		50 µg/mL
CCCCCCC/C=C/C(=O)N1C(=O)/C(=C(\O)C2CCNCC2)C(=O)C1CC(C)C (centres unmarked)		K12 ΔtolC			6.25 µg/mL
CC[C@H](C)[C@H](NC(=O)[C@H](CCCCN)NC(=O)[C@H](CCCCN)NC(=O)CNC(=O)[C@H](CCCCN)NC(=O)[C@H](CC(C)C)NC(=O)[C@H](CCCCN)NC(=O)[C@H](CCCNC(=N)N)NC(=O)[C@@H](NC(=O)[C@H](CC(C)C)NC(=O)[C@H](CCCNC(=N)N)NC(=O)[C@@H](N)CCCNC(=N)N)[C@@H](C)CC)C(=O)N[C@@H](Cc1ccc(O)cc1)C(=O)N[C@@H](CC(C)C)C(=O)N[C@@H](Cc1ccc(O)cc1)C(=O)N[C@@H](Cc1ccccc1)C(=O)N[C@@H](CCCCN)C(=O)N[C@@H](CC(C)C)C(=O)N[C@@H](CCC(N)=O)C(=O)N[C@@H](CC(C)C)C(=O)N[C@@H](CC(C)C)C(=O)N[C@@H](CCCCN)C(=O)N[C@@H](CCCCN)C(N)=O		KCTC 1682, Mueller-Hinton broth	with: 2.5 mM CaCl2		32 µM

For quick reference, copied from above:
SMILES	test	test system	setting	how to read	MIC
CC[C@H](C)[C@H](N)C(=O)N[C@@H](CC(C)C)C(=O)NCC(=O)N[C@@H](CCCNC(=N)N)C(=O)N[C@H](C(=O)N[C@@H](Cc1c[nH]c2ccccc12)C(=O)N[C@@H](CCCCN)C(=O)NCC(=O)N[C@H](C(=O)N[C@@H](CCCCN)C(=O)N[C@@H](CC(=O)O)C(=O)N[C@H](C(=O)N[C@@H](CC(C)C)C(N)=O)[C@@H](C)CC)[C@@H](C)CC)[C@@H](C)CC	broth microdilution	ATCC 25922, Mueller-Hinton broth	16 h, 37 °C		6.25 µM
CC[C@H](C)[C@H](NC(=O)[C@@H]1CCCN1C(=O)[C@@H]1CCCN1C(=O)[C@H](CCCNC(=N)N)NC(=O)[C@H](Cc1ccccc1)NC(=O)[C@@H](N)CCCNC(=N)N)C(=O)N[C@@H](CCCNC(=N)N)C(=O)N[C@@H](CCCNC(=N)N)C(=O)N1CCC[C@H]1C(=O)N1CCC[C@H]1C(=O)N[C@H](C(=O)N[C@@H](CCCNC(=N)N)C(=O)N1CCC[C@H]1C(=O)N1CCC[C@H]1C(=O)N[C@@H](Cc1ccccc1)C(=O)N[C@@H](Cc1ccc(O)cc1)C(=O)N1CCC[C@H]1C(=O)N1CCC[C@H]1C(=O)N[C@@H](Cc1ccccc1)C(=O)N[C@@H](CCCNC(=N)N)C(=O)N1CCC[C@H]1C(=O)N1CCC[C@H]1C(=O)N[C@H](C(=O)N[C@@H](CCCNC(=N)N)C(=O)N1CCC[C@H]1C(=O)N1CCC[C@H]1C(=O)N[C@H](C(=O)N[C@@H](Cc1ccccc1)C(=O)N1CCC[C@H]1C(=O)N1CCC[C@H]1C(=O)N[C@H](C(=O)N[C@@H](CCCNC(=N)N)C(=O)N1CCC[C@H]1C(=O)N1CCC[C@H]1C(=O)N[C@@H](Cc1ccccc1)C(=O)N[C@@H](CCCNC(=N)N)C(=O)N1CCC[C@H]1C(=O)N1CCC[C@H]1C(=O)N[C@@H](CC(C)C)C(=O)NCC(=O)N1CCC[C@H]1C(=O)N[C@@H](Cc1ccccc1)C(=O)N1CCC[C@H]1C(=O)O)[C@@H](C)CC)[C@@H](C)CC)[C@@H](C)CC)[C@@H](C)CC	broth dilution	K12 BW25113			2.6 µM
